Assay results of several laboratories.
A part holds a random share of what one study measured. Changes are numbered by the printed parent chain.
UniProt Q9H093, sequence (whole entry, looked up): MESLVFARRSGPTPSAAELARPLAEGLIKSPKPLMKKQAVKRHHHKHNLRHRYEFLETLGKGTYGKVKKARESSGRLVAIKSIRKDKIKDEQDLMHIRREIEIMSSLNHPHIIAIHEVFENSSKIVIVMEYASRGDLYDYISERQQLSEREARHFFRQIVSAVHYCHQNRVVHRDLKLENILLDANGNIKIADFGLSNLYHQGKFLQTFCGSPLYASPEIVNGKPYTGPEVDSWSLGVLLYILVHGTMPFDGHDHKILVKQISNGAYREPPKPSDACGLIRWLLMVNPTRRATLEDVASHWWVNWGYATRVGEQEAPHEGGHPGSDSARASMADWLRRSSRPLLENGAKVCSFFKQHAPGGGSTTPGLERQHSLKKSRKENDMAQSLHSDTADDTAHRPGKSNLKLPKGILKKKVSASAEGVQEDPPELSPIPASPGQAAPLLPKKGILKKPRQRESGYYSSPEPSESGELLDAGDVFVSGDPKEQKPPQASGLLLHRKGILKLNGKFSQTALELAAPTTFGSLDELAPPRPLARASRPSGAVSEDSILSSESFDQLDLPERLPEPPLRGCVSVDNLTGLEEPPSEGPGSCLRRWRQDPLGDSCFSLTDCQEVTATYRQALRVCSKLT
UniProt P54646, sequence (whole entry, looked up): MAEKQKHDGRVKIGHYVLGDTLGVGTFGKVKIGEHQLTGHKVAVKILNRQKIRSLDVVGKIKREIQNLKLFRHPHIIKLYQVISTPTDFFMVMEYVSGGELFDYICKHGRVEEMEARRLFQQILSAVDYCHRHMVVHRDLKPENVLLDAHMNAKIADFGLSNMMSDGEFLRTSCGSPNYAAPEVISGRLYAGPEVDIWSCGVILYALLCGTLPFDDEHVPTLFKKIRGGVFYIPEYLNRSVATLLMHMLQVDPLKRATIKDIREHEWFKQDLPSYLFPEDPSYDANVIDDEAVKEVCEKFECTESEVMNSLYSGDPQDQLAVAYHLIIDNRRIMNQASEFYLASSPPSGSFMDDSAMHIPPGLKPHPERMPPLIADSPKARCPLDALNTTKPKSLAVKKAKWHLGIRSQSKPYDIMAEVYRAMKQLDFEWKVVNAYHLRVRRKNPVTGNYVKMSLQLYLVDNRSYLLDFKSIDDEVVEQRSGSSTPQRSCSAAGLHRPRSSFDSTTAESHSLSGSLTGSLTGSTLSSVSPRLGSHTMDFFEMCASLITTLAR
UniProt P46734, sequence (whole entry, looked up): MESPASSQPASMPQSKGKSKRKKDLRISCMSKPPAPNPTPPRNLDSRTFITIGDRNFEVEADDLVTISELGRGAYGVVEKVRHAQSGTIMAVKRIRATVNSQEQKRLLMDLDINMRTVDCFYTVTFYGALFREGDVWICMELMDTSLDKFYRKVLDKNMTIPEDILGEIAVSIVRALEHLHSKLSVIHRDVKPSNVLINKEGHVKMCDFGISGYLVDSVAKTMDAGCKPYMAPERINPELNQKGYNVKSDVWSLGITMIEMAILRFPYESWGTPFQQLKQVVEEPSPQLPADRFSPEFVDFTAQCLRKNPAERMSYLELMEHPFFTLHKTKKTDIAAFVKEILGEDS
UniProt P42336, sequence (whole entry, looked up): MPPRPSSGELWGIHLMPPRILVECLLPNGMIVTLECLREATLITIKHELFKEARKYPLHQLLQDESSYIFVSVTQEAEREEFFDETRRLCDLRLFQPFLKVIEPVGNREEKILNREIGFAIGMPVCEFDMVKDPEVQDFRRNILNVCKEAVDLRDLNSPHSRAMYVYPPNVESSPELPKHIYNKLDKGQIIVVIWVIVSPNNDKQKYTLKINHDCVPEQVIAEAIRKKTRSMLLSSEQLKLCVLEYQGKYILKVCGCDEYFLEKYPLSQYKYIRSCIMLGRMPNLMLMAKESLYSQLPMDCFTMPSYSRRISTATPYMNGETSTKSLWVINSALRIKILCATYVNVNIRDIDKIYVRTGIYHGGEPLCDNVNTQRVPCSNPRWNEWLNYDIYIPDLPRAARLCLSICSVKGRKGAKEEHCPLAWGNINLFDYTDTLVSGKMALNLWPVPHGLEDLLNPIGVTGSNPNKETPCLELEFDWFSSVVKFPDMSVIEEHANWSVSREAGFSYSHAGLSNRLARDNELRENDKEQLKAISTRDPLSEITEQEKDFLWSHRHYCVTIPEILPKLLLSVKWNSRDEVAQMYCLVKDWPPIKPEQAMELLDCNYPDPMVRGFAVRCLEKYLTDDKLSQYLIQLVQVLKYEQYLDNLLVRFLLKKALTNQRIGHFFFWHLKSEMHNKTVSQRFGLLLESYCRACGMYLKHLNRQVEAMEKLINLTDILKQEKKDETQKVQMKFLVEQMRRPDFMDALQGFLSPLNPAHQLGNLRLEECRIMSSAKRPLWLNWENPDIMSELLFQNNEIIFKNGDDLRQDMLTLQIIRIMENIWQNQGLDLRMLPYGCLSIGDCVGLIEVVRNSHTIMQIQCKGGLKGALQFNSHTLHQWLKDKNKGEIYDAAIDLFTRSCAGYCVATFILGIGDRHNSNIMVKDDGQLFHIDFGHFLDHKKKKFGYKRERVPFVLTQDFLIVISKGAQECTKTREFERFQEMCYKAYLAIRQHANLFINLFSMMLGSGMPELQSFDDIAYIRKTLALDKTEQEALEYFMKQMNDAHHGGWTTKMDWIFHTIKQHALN
UniProt P06241, sequence (whole entry, looked up): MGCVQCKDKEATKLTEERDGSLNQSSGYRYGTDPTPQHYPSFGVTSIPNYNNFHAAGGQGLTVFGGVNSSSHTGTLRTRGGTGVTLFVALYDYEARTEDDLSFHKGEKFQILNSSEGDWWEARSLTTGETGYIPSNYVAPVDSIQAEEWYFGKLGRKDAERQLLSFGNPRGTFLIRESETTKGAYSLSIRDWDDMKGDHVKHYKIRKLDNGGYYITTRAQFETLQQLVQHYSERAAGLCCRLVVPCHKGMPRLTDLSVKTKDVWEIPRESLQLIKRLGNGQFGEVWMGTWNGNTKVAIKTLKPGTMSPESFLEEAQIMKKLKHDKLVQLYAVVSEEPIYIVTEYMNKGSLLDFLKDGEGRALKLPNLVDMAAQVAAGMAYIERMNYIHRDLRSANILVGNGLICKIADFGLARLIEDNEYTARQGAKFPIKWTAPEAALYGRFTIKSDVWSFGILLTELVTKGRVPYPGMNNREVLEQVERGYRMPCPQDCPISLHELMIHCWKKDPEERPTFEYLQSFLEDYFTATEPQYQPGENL
UniProt P35590, sequence (whole entry, looked up): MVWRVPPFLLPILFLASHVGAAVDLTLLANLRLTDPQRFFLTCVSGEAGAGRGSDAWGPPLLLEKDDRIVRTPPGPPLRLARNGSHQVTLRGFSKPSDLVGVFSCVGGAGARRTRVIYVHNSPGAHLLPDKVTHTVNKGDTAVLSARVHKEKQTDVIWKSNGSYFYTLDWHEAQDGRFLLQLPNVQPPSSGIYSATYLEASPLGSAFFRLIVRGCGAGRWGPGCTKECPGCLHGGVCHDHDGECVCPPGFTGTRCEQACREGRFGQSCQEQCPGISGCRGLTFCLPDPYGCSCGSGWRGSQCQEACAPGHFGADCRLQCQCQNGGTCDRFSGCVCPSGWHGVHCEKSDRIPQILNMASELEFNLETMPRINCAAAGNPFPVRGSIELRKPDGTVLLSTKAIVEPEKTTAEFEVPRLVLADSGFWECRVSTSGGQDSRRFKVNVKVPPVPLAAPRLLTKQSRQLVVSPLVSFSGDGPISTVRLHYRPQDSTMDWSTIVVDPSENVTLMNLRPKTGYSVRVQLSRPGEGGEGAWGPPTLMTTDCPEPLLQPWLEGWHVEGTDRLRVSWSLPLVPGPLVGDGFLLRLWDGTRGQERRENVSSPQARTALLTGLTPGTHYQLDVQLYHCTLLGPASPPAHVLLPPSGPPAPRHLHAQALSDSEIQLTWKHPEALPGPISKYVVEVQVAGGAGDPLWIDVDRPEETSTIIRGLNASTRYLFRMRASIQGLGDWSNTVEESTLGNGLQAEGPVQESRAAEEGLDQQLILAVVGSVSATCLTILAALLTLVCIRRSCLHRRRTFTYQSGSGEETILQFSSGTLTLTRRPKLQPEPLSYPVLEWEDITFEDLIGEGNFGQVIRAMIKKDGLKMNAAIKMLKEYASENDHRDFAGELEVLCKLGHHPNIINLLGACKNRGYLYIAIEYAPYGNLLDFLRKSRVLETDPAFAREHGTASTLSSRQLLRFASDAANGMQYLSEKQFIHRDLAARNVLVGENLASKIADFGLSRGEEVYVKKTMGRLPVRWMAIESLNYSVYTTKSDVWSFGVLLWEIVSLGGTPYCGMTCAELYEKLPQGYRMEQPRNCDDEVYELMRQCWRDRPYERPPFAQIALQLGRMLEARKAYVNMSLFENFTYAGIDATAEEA

Block 1
Target: Mitogen-activated protein kinase kinase kinase kinase 2 (MAP4K2, Homo sapiens, UniProt Q12851)
Effect on: enzyme activity
Mode: inhibitor
Concentration: 0.5 µM
Reference: control
Measurement: remaining activity
Residues (Q12851 1-820): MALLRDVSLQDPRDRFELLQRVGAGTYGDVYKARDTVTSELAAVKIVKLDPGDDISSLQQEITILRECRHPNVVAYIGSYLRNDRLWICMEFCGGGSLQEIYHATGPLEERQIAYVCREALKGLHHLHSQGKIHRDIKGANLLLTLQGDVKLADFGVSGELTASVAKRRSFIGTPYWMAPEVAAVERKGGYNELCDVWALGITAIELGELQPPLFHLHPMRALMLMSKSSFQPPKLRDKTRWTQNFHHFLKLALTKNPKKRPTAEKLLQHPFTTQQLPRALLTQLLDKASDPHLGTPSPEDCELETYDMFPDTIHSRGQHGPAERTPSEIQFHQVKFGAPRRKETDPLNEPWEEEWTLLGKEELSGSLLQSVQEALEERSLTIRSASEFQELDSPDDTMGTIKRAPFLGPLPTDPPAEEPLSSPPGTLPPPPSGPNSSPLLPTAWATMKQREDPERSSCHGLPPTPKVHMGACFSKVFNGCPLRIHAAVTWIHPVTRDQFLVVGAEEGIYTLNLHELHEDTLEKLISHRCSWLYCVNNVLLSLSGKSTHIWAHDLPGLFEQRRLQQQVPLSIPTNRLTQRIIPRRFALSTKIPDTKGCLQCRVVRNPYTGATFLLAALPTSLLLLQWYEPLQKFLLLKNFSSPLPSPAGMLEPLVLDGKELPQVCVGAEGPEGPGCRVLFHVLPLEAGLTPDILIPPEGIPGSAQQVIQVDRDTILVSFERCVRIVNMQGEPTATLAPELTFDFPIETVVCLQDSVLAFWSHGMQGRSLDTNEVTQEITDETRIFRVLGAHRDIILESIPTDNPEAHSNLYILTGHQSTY
N#CC(C#N)=C(N)/C(C#N)=C/c1ccc(O)cc1: 100%
COc1ccc(C(=O)Nc2sc3c(c2C(N)=O)CCCC3)cc1OC: 106%
CC(C)[C@H](CO)Nc1nc(Nc2cc(N)cc(Cl)c2)c2ncn(C(C)C)c2n1: 90.7%
O=C(Nc1cccc(Nc2cc(Nc3cccc(C(F)(F)F)c3)ncn2)c1)C1CC1: 116%
Cc1ccc(Nc2nccc(N(C)c3ccc4c(C)n(C)nc4c3)n2)cc1S(N)(=O)=O: 72.5%
CN(C)c1ccc(C=C2C(=O)Nc3ccccc32)cc1: 109%
O=C(O)c1ccc2c3c1cccc3c(=O)n1c3ccccc3nc21: 38%
Cn1sc(=O)n(Cc2ccccc2)c1=O: 119%
Cn1c2ccccc2c2c3c(c4c5ccccc5n(CCC#N)c4c21)CNC3=O: 5.68%
O=c1c2ccccc2[nH]c(=S)n1CCN1CCC(=C(c2ccc(F)cc2)c2ccc(F)cc2)CC1: 112%
Oc1ccc(-c2nc(-c3ccncc3)c(-c3ccc(F)cc3)[nH]2)cc1: 101%
CNC(=O)c1cc(Oc2ccc(NC(=O)Nc3ccc(Cl)c(C(F)(F)F)c3)cc2)ccn1: 108%
O=S(=O)(c1cccc2cnccc12)N1CCCNCC1: 45.7%
Cc1ccc(NC(=O)c2ccc(CN3CCN(C)CC3)cc2)cc1Nc1nc(-c2cccnc2)cs1: 103%

Block 2
Target: CCNA2, cyclin fold, Cln2 fusion (human)
Technique: yeast growth competition, sequencing
Sample: yeast
Setting: strong parent motif
Reference: not given
Direction: higher = stronger binding
Measurement: normalised enrichment score
Starting sequence: SCAPER docking peptide (human); SNARRSLNFGGST
N2Y: 5.11
R5L: 0.728
A3C: 5.97
G11F: 6.18
S1G: 5.93
S6Y: 5.3
R4Q: 2.45
R5I: 2.76

Block 3
Structure (SMILES): O=C(Nc1cccnn1)N1CC(C/C=C/c2cncc(Oc3ccc(C(F)(F)F)cn3)n2)C1
Effect on: cell-free assay
Technique: competition with immobilised ligand
Concentration: 1 µM
Measurement: remaining binding
FYN (Homo sapiens, UniProt P06241): 100%
PIK3CA (Homo sapiens, UniProt P42336): 100%
PRKAA2 (Homo sapiens, UniProt P54646): 96%
TIE1 (Homo sapiens, UniProt P35590): 100%
MAP2K3 (Homo sapiens, UniProt P46734): 72%
NUAK2 (Homo sapiens, UniProt Q9H093): 73%

Block 4
Target: RNA binding protein fox-1 homolog 2, RRM domain, GST-SBP tag (RBFOX2, Homo sapiens, UniProt O43251-10, residues 100-194)
Technique: RNA Bind-n-Seq
Form: RNA
Sample: in vitro
Concentration: 365 nM
Setting: natural RNA segment, single round, ends assumed
Reference: no-protein control
Direction: higher = stronger binding
Measurement: RBNS enrichment (R)
All sequences stand within: GGGAGUUCUACAGUCCGACGAUC … UGGAAUUCUCGGGUGCCAA
Residues (chain): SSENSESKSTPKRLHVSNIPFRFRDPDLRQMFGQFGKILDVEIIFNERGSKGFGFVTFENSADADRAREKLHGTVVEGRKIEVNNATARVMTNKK
ACACCAGGGUCUGUCCUGGUCCUCAAGCCACGCACCCGCUAUGCCUGCACUGCAGCCCAGCCCCGGACAGCUCCAGGAUCCGUGCAGUGGCUGCGCCGCCAGGCCCCAAC: 0.322
GAGGGGGCCUUCCUCCAGGGAAUGUGACUCUCCCAGGCCCCAGAAUAGCUCCUGGACCCAAGCCCAAGGCCCAGCCUGGGACAAGGCUCCGAGGGUCGGCUGGCCGGAGC: 0.385
GUUACUAAGGUGCCUGCUAGCCAUUGUAUAAAAUUAAAACAUGAAGAAUAUUUUUUUUUUGAGCAUGGCUAGUGGAUUUAAAACAACACAUACCUGUCACUGCUGGAGUC: 0.387
UCCACCUGCAAGGUCUUUCAGGUAGAACUCUUCUUUUAAGGCAAUUAGCCCAUUGCCAAAAGGUUUUACUGUCUUAAAGCUGUCUUUCUGAGAUCUAAUUCCAAGGACUU: 0.385
UUUCCACUCUUUUCAGUCCUUCAUGUUAAAGAUUUAGACACCACAUACAACUGGUAAAGGACGUUUUCUUGAGAGUUUUAACUAUAUGUAAACAUUGUAUAAUGAUAUGG: 0.385
AAGUAAUGAUUCCUCUAAAGGGAAAGGAAGUUUUAAGAGGGAGGCUUGGACAAUCUUAGUAUUUACACGUGAGAUGAAAUGAAGAGUCCCGUGUGCUGCUCUGUGUGCAA: 1.02
AGUCCUCAGUUAAGGCAAGAAUGCAUGUGUUUCUUAAGAAUGAGUACUCUGCGUUGAUGUUUAUGAGAAGGUGGUCAUUAGAUGCAGUCUUUUCCUUUUUAAUCCCCUCU: 10.5
ACAAAUUUAUAGAUGCAAACCAAAAGAUCUUUUUAAAAGAGAGAGAGAGGAAAAAAAUCACCUUUUAUUUGUUUGGGUCUCAUUGUCAGAAUUAUUAUUCAGAUCAAGAA: 0.652

Some of these lines once more (block 1):
Cn1sc(=O)n(Cc2ccccc2)c1=O: 119%
O=c1c2ccccc2[nH]c(=S)n1CCN1CCC(=C(c2ccc(F)cc2)c2ccc(F)cc2)CC1: 112%
COc1ccc(C(=O)Nc2sc3c(c2C(N)=O)CCCC3)cc1OC: 106%
Oc1ccc(-c2nc(-c3ccncc3)c(-c3ccc(F)cc3)[nH]2)cc1: 101%
CNC(=O)c1cc(Oc2ccc(NC(=O)Nc3ccc(Cl)c(C(F)(F)F)c3)cc2)ccn1: 108%
